# Experimental data from different studies.
# Each line is one published result; not all experiments were run side by side. “And” joins repeats or separate records; there may be more than shown. Numbers after ± are the reported error.
SMILES,target or system,test,system,setting,scale,measurement,result
CCN(CC)CC(=O)Nc1cccc(-n2cc(-c3ccc4ccc(-c5cn(-c6cccc(NC(=O)CN(CC)CC)c6)nn5)cc4c3)nn2)c1,RCC4,"PCR angiogenesis array, refers to: PF4",,"5 x IC50, 4 h, normoxia",reference: untreated,fold regulation,1.06
CNS(=O)(=O)Nc1nccc(Cc2c(C)c3ccc(Oc4ncccc4F)cc3oc2=O)c1F,NCI-H1693,cell viability,,7 days,,IC50,307 nM
Cc1ncsc1-c1ccc(C(C)NC(=O)C2CC(O)CN2C(=O)C(NC(=O)CCCCCCCCCCN2CCCC(Nc3ncc(Cl)c(Nc4ccccc4S(=O)(=O)C(C)C)n3)C2)C(C)(C)C)cc1 (stereo not shown),22Rv1,"RNA-seq, refers to: SENP1 mRNA",,concentration not given,reference: DMSO,log2 fold change,-1.04
C=CC(=O)N1[C@@H](c2ccc3c(c2)OCO3)c2[nH]c3ccccc3c2C[C@H]1C(=O)N1CCN(C)CC1,CCNE1 WT-3xFLAG:CDK2 complex,"co-IP TMT proteomics, refers to: KPNA2",HEK-293T,"20 µM, 6 h",reference: DMSO,log2 fold change,-0.23
CC(C)C[C@H](NC(=O)[C@@H](CCCCNC(=O)[C@@H](Cc1ccccc1)NC(=O)CCCCCNC(=O)CN1CCN(CC(=O)O)CCN(CC(=O)O)CCN(CC(=O)O)CC1)NC(=O)[C@H](Cc1ccc(O)cc1)NC(=O)[C@H](CO)NC(=O)[C@H](Cc1c[nH]c2ccccc12)NC(=O)[C@H](Cc1c[nH]cn1)NC(=O)[C@@H]1CCC(=O)N1)C(=O)N[C@@H](CCCNC(=N)N)C(=O)N1CCC[C@H]1C(=O)NCC(N)=O [indium-111 labelled],,,"female athymic nude mice, stomach","intravenous, 0.037 MBq, 2 h",,tissue uptake,0.23 ± 0.12 %ID/g
O=C(N/N=C/c1ccccn1)c1cc(-c2ccc(Cl)cc2)nc2ccccc12,LDR,"silenced CMV-GFP reporter derepression, qHTS",,,,Emax,72%
COC(=O)c1cc(NC2=NC(=O)C(=Cc3ccc(N(C)C)cc3)S2)ccc1OC(C)=O,MCF7,"GC-MS, refers to: L-Aspartic acid",,1 µM,reference: DMSO,metabolite level,-0.05 fold change
CCNc1cc2c(cc1C)C1(c3cc(C)c(NCC)cc3O2)c2ccccc2C(=O)N1N=Cc1c[c-]c(-c2ccccn2)cc1.Cc1c(C)c(-c2ccc(-c3ccccc3)cc2)[c-](C)c1C.[Cl-].[Ir+3],A549,annexin V-FITC/PI flow cytometry,,"0.5 x IC50, 24 h",,early apoptotic cells,2.46 ± 0.12%
N=C(S)N/N=C/c1ncc(C(F)(F)F)cc1Cl,LDR,"silenced CMV-GFP reporter derepression, qHTS",,,,Emax,138%
COC1CN([C@H]2CC[C@H]([C@@]3(C)Oc4c(Cl)cc(C(=O)NCc5c(SC)cc(C)[nH]c5=O)c(C)c4O3)CC2)C1,,"RNA-seq, refers to: NRTN mouse homolog","mouse, HT-1376 xenograft, whole blood",dose not given,reference: vehicle,log2 fold change,3.78
COc1ccccc1-c1ccncc1C(=O)Nc1ccc(OCc2ccc(Cl)cc2)nn1,DLD-1 BRCA2-/-,,,5 µM,reference: untreated,colony survival,99.6% and 96.6% and 102%
CN1CCCNC(=O)c2cccc(c2)C(=O)NCCCN(C)CCCNc2cccc3c2C(=O)c2cccc(c2C3=O)NCCC1,SAS,"RNA-Seq, refers to: PLOD2 mRNA",,"1 µM, 6 h",reference: untreated cells,log2 fold change,-1.69
Cc1cc(N)ccc1-c1cc2c(N3CCC[C@H](C(=O)NCc4ccc(OC(F)(F)F)cc4)C3)ncnc2[nH]1,NCI-H2228,"cell growth or viability, MTT",,"5 µg/mL, 72 h",,inhibition,86%
Fc1cncc(-c2ccc3[nH]c4ncnc(N[C@H]5CC[C@H](N6CCOCC6)CC5)c4c3c2)c1,TMD8 parental,immunoblot,,"concentration not given, 24 h",,c-MYC level,decreased
C=CC(=O)Nc1cccc(Cn2ncc3cnc(Nc4cnn(CCOC)c4)nc32)c1,MARK2 human,"binding, KINOMEscan",,100 nM,lower = stronger binding,percent of control,100%
COc1ccc2c(c1)OC1=C(C(=O)CCC1)C2c1c[nH]c2ccccc12 (stereo not shown),mouse preadipocytes,"qPCR, refers to: C/EBPα",,"IC20, 14 days, adipogenic induction",reference: untreated cells,mRNA level,decreased
Nc1ncc(-c2cc(-c3cnn(CC(F)(F)F)c3)ncc2F)nc1C(=O)NC1CNCC(F)C1 (stereo not shown),LIMK1,KINOMEscan,,1 µM,reference: DMSO control,remaining binding,76%
C=C(NC(=O)c1csc(-c2nc3c(cc2O)-c2nc(cs2)C(=O)NC(C(C)O)C(=O)NC(=C(C)OC)c2nc(cs2)C(=O)NC2c4nc(cs4)C(=O)NC(COC(=O)c4c5c6c(cccc6n4O)COC(=O)C(OC4CC(C)(O)C(N(C)C)C(C)O4)C2OC5)c2nc-3cs2)n1)C(N)=O (stereo not shown),,,"Sprague-Dawley rats, male, plasma","intravenous infusion, 6 mg/kg, day 1, multiple dosing",,AUC(0-inf),1520 ng·h/mL
COc1cc(O)ccc1CCC(c1ccc(O)cc1)c1cc2c(c(C)c1O)OC(c1ccc(O)cc1)CC2 (mixture of isomers),,,human blood,"30 µM, with: A23187",,5-HEPE level,6 ± 4 pg/mL
O=C(NCc1ccc(OC(F)(F)F)cc1)[C@H]1CCCN(c2ncnc3[nH]c(-c4ccc(N5CCOCC5)cc4)cc23)C1,NCI-H2228,"cell growth or viability, MTT",,"0.04 µg/mL, 72 h",,inhibition,62.3%
Cc1c(Cc2cccc(C(C)(C)C(=O)O)c2)c2ccc(C(=O)N[C@@H](C)c3ccc(C(C)(C)C)cc3)cc2n1C,"PPARG (Homo sapiens, UniProt P37231)","ligand displacement, TR-FRET",,,,IC50,171 nM
O=C(CCCCCOc1ccc2ccccc2c1)N[C@@H](CO)C[C@@H](O)c1ccc(-c2ccccc2)cc1,HeLa,"CERT activity, HPLC-MS/MS lipidomics",,"1 µM, 24 h, not cell-number normalised",,total ceramide level,66100 pmol/sample and 62000 pmol/sample and 71000 pmol/sample
Cc1cc(NC2CCN(C)CC2)ccc1-c1cc2c(N3CCC[C@H](C(=O)N4CCCC4)C3)ncnc2[nH]1,NCI-H2228,"cell growth or viability, MTT",,"0.2 µg/mL, 72 h",,inhibition,10.8%
Cc1c(C)c2cccnc2c2ncccc12.O=[N+]([O-])[O-].O=c1c(C=NN=C([S-])Nc2ccccc2)coc2ccccc12.[Cu+2],supercoiled pUC19 DNA,oxidative DNA cleavage,,"concentration not given, under nitrogen, with: ascorbic acid",,nicked circular DNA,100%
C=CC(=O)N1[C@H](c2ccc3c(c2)OCO3)c2[nH]c3ccccc3c2C[C@H]1C(=O)N1CCOCC1,22Rv1 SF3B1 C1111S,ATAC-seq profile,,"concentration not given, at FOXA1-binding sites, unit not given",reference: parental 22Rv1,Pearson correlation,0.88
CCCC[C@H](NC(=O)[C@H](CC(C)C)NC(=O)[C@H](CO)NC(=O)[C@H](CO)NC(=O)[C@H](C)NC(=O)[C@H](CO)NC(=O)[C@H](C)N)C(=O)N[C@@H](CC(=O)O)C(=O)N[C@@H](CCCCN)C(=O)N[C@@H](CCC(=O)O)C(=O)N[C@@H](C)C(=O)N[C@H](C(=O)N[C@@H](Cc1ccc(O)cc1)C(=O)N[C@@H](Cc1ccccc1)C(=O)N[C@@H](C)C(=O)N[C@@H](Cc1c[nH]cn1)C(=O)N[C@@H](CC(C)C)C(=O)N[C@@H](CC(=O)O)C(=O)N[C@H](C(=O)N[C@H](C(=O)N[C@@H](Cc1c[nH]c2ccccc12)C(=O)O)[C@@H](C)CC)[C@@H](C)CC)C(C)C,COS-7 ETBR-GFP,"calcium flux, agonist",,ETBR/ETAR ratio 1:0.5,,Emax,90 ± 5%
O=C(C[Se]C(=O)c1cc2ccccc2[nH]1)Nc1cccc(C(F)(F)F)c1,NCI60 renal subpanel,"total growth inhibition, inhibitor",,five-dose,,mean TGI,3220 nM
O=C(NCc1ccc(OC(F)(F)F)cc1)[C@H]1CCCN(c2ncnc3[nH]c(-c4cccs4)cc23)C1,NCI-H2228,"cell growth or viability, MTT",,"0.2 µg/mL, 72 h",,inhibition,66%

# For quick reference, copied from above:
SMILES,target or system,test,system,setting,scale,measurement,result
Cc1c(C)c2cccnc2c2ncccc12.O=[N+]([O-])[O-].O=c1c(C=NN=C([S-])Nc2ccccc2)coc2ccccc12.[Cu+2],supercoiled pUC19 DNA,oxidative DNA cleavage,,"concentration not given, under nitrogen, with: ascorbic acid",,nicked circular DNA,100%
C=CC(=O)N1[C@H](c2ccc3c(c2)OCO3)c2[nH]c3ccccc3c2C[C@H]1C(=O)N1CCOCC1,22Rv1 SF3B1 C1111S,ATAC-seq profile,,"concentration not given, at FOXA1-binding sites, unit not given",reference: parental 22Rv1,Pearson correlation,0.88
CCCC[C@H](NC(=O)[C@H](CC(C)C)NC(=O)[C@H](CO)NC(=O)[C@H](CO)NC(=O)[C@H](C)NC(=O)[C@H](CO)NC(=O)[C@H](C)N)C(=O)N[C@@H](CC(=O)O)C(=O)N[C@@H](CCCCN)C(=O)N[C@@H](CCC(=O)O)C(=O)N[C@@H](C)C(=O)N[C@H](C(=O)N[C@@H](Cc1ccc(O)cc1)C(=O)N[C@@H](Cc1ccccc1)C(=O)N[C@@H](C)C(=O)N[C@@H](Cc1c[nH]cn1)C(=O)N[C@@H](CC(C)C)C(=O)N[C@@H](CC(=O)O)C(=O)N[C@H](C(=O)N[C@H](C(=O)N[C@@H](Cc1c[nH]c2ccccc12)C(=O)O)[C@@H](C)CC)[C@@H](C)CC)C(C)C,COS-7 ETBR-GFP,"calcium flux, agonist",,ETBR/ETAR ratio 1:0.5,,Emax,90 ± 5%
